Assay results of several laboratories.
Protocols differ between the studies behind these lines. Values joined by “and” are separate records of one study, mostly repeats; a detail may differ.
T1: itself; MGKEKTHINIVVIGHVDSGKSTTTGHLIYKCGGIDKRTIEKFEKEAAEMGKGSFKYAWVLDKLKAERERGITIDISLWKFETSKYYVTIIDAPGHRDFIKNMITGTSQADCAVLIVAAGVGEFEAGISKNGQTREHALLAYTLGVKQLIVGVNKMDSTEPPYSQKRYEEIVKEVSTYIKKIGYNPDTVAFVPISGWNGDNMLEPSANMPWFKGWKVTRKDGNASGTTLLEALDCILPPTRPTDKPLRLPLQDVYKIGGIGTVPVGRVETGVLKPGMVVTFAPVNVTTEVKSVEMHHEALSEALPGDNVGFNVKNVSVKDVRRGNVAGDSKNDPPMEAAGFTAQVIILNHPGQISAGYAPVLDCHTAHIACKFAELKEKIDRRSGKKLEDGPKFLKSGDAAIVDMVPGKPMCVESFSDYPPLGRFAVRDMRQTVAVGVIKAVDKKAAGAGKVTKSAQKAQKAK
T2: itself; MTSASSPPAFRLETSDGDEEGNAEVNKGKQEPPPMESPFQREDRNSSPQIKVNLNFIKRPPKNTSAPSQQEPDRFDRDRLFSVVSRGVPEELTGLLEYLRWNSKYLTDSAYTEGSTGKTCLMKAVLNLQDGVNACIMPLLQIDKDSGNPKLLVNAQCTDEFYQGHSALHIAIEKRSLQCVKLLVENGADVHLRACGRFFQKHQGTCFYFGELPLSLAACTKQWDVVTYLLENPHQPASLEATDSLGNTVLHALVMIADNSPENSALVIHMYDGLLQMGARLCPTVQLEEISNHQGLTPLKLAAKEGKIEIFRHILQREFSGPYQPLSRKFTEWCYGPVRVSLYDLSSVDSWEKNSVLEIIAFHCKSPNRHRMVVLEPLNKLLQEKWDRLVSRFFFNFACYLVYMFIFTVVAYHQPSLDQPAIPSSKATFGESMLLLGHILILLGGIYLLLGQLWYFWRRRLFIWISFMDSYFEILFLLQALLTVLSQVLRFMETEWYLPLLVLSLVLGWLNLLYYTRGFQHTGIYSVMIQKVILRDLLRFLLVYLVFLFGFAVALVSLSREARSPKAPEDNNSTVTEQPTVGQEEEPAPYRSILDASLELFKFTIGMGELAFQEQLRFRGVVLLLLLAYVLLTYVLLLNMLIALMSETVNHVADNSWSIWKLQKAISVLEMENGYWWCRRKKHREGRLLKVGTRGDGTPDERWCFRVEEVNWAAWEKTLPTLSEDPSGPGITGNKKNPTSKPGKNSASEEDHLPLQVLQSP
T3: itself; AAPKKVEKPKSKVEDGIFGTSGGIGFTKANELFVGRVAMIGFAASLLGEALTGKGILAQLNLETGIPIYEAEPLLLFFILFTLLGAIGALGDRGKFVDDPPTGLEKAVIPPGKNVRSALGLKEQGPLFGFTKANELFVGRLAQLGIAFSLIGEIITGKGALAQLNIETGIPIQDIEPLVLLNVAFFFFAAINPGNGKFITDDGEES
T4: itself; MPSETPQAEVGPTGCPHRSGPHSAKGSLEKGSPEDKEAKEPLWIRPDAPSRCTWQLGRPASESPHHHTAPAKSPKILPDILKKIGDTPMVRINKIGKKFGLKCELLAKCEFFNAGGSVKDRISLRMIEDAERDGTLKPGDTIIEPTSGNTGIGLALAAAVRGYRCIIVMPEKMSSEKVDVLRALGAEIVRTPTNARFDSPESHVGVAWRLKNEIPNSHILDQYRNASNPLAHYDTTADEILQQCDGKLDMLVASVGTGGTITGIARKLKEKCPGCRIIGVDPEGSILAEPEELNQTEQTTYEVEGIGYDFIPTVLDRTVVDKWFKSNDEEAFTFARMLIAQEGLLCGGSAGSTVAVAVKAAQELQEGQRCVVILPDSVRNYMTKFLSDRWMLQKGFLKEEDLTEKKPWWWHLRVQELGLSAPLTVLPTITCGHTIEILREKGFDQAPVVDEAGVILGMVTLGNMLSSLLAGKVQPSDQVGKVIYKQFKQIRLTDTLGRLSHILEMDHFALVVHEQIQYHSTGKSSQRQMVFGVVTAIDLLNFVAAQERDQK
T5: itself; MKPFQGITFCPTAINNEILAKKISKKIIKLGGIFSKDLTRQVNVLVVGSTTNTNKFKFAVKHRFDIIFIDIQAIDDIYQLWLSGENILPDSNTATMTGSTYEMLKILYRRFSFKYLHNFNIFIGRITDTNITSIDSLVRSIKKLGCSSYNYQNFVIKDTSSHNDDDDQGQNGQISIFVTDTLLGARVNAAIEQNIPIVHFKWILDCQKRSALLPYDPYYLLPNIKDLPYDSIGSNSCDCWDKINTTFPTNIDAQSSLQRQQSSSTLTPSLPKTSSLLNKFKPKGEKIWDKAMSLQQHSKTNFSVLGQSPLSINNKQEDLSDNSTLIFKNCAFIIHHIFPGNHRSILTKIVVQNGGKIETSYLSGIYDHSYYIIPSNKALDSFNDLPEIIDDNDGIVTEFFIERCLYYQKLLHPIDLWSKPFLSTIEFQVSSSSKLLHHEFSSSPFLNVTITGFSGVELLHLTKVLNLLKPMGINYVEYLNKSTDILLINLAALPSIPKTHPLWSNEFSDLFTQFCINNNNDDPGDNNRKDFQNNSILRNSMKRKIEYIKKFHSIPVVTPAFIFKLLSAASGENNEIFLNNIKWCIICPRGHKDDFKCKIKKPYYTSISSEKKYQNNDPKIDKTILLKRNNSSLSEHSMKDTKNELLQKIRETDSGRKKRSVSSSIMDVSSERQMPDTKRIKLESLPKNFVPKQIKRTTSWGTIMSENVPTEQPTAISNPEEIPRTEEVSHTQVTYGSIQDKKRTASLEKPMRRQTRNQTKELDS
B1: PsbS mature (Arabidopsis thaliana, UniProt Q9XF91); chain AAPKKVEKPKSKVEDGIFGTSGGIGFTKANELFVGRVAMIGFAASLLGEALTGKGILAQLNLETGIPIYEAEPLLLFFILFTLLGAIGALGDRGKFVDDPPTGLEKAVIPPGKNVRSALGLKEQGPLFGFTKANELFVGRLAQLGIAFSLIGEIITGKGALAQLNIETGIPIQDIEPLVLLNVAFFFFAAINPGNGKFITDDGEES
Chain of UniProt P12830 (whole entry, looked up): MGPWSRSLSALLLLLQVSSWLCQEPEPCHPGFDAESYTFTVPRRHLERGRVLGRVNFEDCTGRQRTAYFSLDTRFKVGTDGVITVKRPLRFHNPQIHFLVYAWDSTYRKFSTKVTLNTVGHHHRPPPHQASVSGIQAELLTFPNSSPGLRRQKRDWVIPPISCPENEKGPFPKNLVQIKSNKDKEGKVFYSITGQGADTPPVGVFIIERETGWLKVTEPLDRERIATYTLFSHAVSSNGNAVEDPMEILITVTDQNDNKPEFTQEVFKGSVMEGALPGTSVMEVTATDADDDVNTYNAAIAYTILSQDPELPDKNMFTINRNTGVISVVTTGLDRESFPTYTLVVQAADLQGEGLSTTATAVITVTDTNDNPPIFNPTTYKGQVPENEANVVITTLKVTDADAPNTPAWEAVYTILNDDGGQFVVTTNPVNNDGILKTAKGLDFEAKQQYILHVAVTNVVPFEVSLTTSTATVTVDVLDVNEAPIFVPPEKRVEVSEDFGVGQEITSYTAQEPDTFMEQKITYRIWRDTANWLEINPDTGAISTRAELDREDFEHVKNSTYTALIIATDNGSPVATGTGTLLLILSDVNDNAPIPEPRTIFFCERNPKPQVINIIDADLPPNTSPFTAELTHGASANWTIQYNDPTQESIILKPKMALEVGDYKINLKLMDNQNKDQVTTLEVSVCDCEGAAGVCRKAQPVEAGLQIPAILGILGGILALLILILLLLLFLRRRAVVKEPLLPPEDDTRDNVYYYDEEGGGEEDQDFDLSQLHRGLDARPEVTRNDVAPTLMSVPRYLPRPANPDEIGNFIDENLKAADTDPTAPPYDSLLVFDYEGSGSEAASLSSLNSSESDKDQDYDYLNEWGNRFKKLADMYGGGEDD
Chain of UniProt P02930 (whole entry, unmodified, looked up): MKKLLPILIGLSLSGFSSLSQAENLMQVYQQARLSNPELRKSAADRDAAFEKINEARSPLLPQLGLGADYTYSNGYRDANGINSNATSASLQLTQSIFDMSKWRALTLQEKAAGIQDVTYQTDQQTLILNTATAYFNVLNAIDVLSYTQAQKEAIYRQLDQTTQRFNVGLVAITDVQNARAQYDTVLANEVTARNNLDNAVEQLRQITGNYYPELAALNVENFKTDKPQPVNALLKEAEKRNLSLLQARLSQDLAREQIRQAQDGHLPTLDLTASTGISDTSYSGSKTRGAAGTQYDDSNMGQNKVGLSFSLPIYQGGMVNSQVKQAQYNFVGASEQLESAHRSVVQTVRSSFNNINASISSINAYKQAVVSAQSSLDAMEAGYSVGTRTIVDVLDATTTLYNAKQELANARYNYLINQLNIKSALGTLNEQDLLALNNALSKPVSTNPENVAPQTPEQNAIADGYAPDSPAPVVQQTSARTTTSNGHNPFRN
Chain of UniProt P26368 (whole entry, looked up): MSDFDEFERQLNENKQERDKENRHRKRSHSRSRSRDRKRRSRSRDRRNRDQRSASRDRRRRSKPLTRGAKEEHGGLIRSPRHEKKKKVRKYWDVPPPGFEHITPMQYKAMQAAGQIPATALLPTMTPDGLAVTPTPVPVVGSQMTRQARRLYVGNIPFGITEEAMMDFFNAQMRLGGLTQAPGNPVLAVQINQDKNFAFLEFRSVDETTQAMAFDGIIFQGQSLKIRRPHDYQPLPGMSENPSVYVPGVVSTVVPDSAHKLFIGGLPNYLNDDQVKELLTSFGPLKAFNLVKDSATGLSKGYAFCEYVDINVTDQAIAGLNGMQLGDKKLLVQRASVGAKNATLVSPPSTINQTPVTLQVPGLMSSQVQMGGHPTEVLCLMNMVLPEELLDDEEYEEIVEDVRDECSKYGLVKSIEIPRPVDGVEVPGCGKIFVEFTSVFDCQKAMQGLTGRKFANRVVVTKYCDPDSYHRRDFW

For `GlyRS αβ fusion (Oryza sativa)`, “subunits per oligomer” read 2 (itself; cryo-EM).
For `PopZ del102-128 (Caulobacter crescentus)`, “subunits per oligomer” read 6 (itself; AUC; 25 °C).
For `CLTC/CLTA triskelion (Bos taurus)`, “subunits per oligomer” read 3.65 (itself; light scattering).
Under “subunits per oligomer”, `sarcolamban 33 aa peptide (Daphnia pulex)` is recorded as 5 and 3 (itself; SDS-PAGE).
For `ALD1 fragment (Toxoplasma gondii)`, “subunits per oligomer” read 4 (itself; dynamic light scattering).
`Cas5 full length (Moraxella)`: “subunits per oligomer” 2 (itself; SEC-MALS).
`Maackia amurensis mitogenic lectin (Maackia amurensis)`: “subunits per oligomer” 2 (itself; nonreducing SDS-PAGE).
`popZ fragment (Caulobacter crescentus)` — result for “subunits per oligomer”: 6 (itself; mass photometry; 250 nM, no MgCl2).
`ACAT1 fragment, pY407 (Homo sapiens)` — result for “subunits per oligomer”: 4 (itself; cross-linking; phosphorylated, wild type).
`CDH1 (Homo sapiens, UniProt P12830)` — result for “subunits per oligomer”: 2 (itself; FRET or BRET; in cells).
For `EutT (Listeria monocytogenes)`, “subunits per oligomer” read 4 (itself; SEC).
For `popZ del129-134 (Caulobacter crescentus)`, “subunits per oligomer” read 3 (itself; mass photometry; 250 nM).
Under “subunits per oligomer”, `CDH3 ectodomain, soluble (Xenopus)` is recorded as 2 (itself; AUC; monomer-dimer fit).
Under “subunits per oligomer”, `HARP fragment (Hydrogenobacter thermophilus)` is recorded as 12 (itself; cryo-EM).
`sodN mature H1A (Streptomyces coelicolor)`: “subunits per oligomer” 6 (itself; ESI-MS; denaturing conditions).
`EEF1A1 (Oryctolagus cuniculus, UniProt P68105)`: “subunits per oligomer” 2 (T1, itself; SAXS).
For `SIR2 Y94A (Paenibacillus sp.)`, “subunits per oligomer” read 2 (itself; SEC, AUC; mutant).
`UDP-2,3-diacylglucosamine hydrolase D225A (Caulobacter crescentus)` — result for “subunits per oligomer”: 2 (itself; SEC).
For `Trpv2 (Rattus norvegicus, UniProt Q9WUD2)`, “subunits per oligomer” read 4 (T2, itself; SEC).
Under “subunits per oligomer”, `Piezo1 M2493A/F2494A (Mus musculus)` is recorded as 3 (itself; SEC; not purified, clarified lysate).
`GAPDH fragment, leucine-F covalently linked (Homo sapiens)` — result for “subunits per oligomer”: 4 (itself; crystal structure).
`B1 (PsbS mature)` — result for “subunits per oligomer”: 2 (T3, itself; cross-linking; not purified).
For `ERF fragment (Homo sapiens)`, “subunits per oligomer” read 2 (itself; cross-linking; no DNA).
For `FOXM1 (Homo sapiens)`, “subunits per oligomer” read 2 (itself; non-reducing SDS-PAGE immunoblot; U2OS, lysate; not purified).
`CENPE fragment (Homo sapiens)` — result for “subunits per oligomer”: 2 (itself; SEC-MALS).
`LECA (Pisum sativum)` — result for “subunits per oligomer”: 2 (itself; SAXS; 65 °C).
`TolC mature monomer (Escherichia coli, UniProt P02930)` — result for “subunits per oligomer”: 3 (itself; SEC).
`HSP90 fragment (Plasmodium falciparum)` — result for “subunits per oligomer”: 2 (itself; mass photometry).
`MXAN_1565 GAF domain (Myxococcus xanthus)` — result for “subunits per oligomer”: 2 (itself; SEC).
For `Tln1 fragment (Mus musculus)`, “subunits per oligomer” read 2 (itself; SEC-MALS).
Under “subunits per oligomer”, `NUTF2 (Homo sapiens, UniProt P61970)` is recorded as 2 (itself; native MS; not purified).
`sodN mature E17R/R47E (Streptomyces coelicolor)`: “subunits per oligomer” 6 (itself; ESI-MS; denaturing conditions).
For `comFB (Treponema denticola)`, “subunits per oligomer” read 2 (itself; mass photometry; without c-di-GMP).
`ZBTB5 fragment D68K/D98K (Homo sapiens)` — result for “subunits per oligomer”: 2 (itself; SEC, mass photometry).
`gene 82 (mycobacteriophage)` — result for “subunits per oligomer”: 3 (itself; cross-linking).
Under “subunits per oligomer”, `comFB (Thermoanaerobacter brockii)` is recorded as 2 and 4 (itself; mass photometry; without c-di-GMP).
`IGKC CL domain (Homo sapiens)` — result for “subunits per oligomer”: 2 (itself; SEC).
For `CBS (Homo sapiens, UniProt P35520)`, “subunits per oligomer” read 4 (T4, itself; crystal structure).
For `mgtE (Bacillus firmus)`, “subunits per oligomer” read 2 (itself; SEC).
`GCUUGUUUU (ssRNA)` has a Kd of 3.72 µM (U2AF2 148-342 (Homo sapiens, UniProt P26368); sequencing of bound RNA; RNA; motif only).
`CAMK2D F368A (Homo sapiens)`: “subunits per oligomer” 14 (itself; mass photometry).
Under “subunits per oligomer”, `P2-RANTES fragment` is recorded as 4 (itself; crystal structure).
`CAMK2D F368A/L405M (Homo sapiens)` — result for “subunits per oligomer”: 2 (itself; mass photometry).
`Dpb11 (Saccharomyces cerevisiae, UniProt P47027)`: “subunits per oligomer” 2 (T5, itself; mass photometry).

A few entries again:
`popZ fragment (Caulobacter crescentus)` — result for “subunits per oligomer”: 6 (itself; mass photometry; 250 nM, no MgCl2).
For `ALD1 fragment (Toxoplasma gondii)`, “subunits per oligomer” read 4 (itself; dynamic light scattering).
`IGKC CL domain (Homo sapiens)` — result for “subunits per oligomer”: 2 (itself; SEC).
`gene 82 (mycobacteriophage)` — result for “subunits per oligomer”: 3 (itself; cross-linking).
`ZBTB5 fragment D68K/D98K (Homo sapiens)` — result for “subunits per oligomer”: 2 (itself; SEC, mass photometry).
For `Tln1 fragment (Mus musculus)`, “subunits per oligomer” read 2 (itself; SEC-MALS).
`GAPDH fragment, leucine-F covalently linked (Homo sapiens)` — result for “subunits per oligomer”: 4 (itself; crystal structure).
